# Measurements from different studies.
# Compare with care: the assays were run in different laboratories. ± gives the spread as reported.
# B1: UGT1A9 (Homo sapiens, UniProt O60656); chain GKLLVVPMDGSHWFTMRSVVEKLILRGHEVVVVMPEVSWQLGRSLNCTVKTYSTSYTLEDLDREFKAFAHAQWKAQVRSIYSLLMGSYNDIFDLFFSNCRSLFKDKKLVEYLKESSFDAVFLDPFDNCGLIVAKYFSLPSVVFARGILCHYLEEGAQCPAPLSYVPRILLGFSDAMTFKERVRNHIMHLEEHLLCHRFFKNALEIASEILQTPVTEYDLYSHTSIWLLRTDFVLDYPKPVMPNMIFIGGINCHQGKPLPMEFEAYINASGEHGIVVFSLGSMVSEIPEKKAMAIADALGKIPQTVLWRYTGTRPSNLANNTILVKWLPQNDLLGHPMTRAFITHAGSHGVYESICNGVPMVMMPLFGDQMDNAKRMETKGAGVTLNVLEMTSEDLENALKAVINDKSYKENIMRLSSLHKDRPVEPLDLAVFWVEFVMRHKGAPHLRPAAHDLTWYQYHSLDVIGFLLAVVLTVAFITFKCCAYGYRKCLGKKGRVKKAHKSKTH
# B2: SACOL1063 (Staphylococcus aureus, UniProt Q5HH30); chain MFSKVNNQKMLEDCFYIRKKVFVEEQGVPEESEIDEYESESIHLIGYDNGQPVATARIRPINETTVKIERVAVMKSHRGQGMGRMLMQAVESLAKDEGFYVATMNAQCHAIPFYESLNFKMRGNIFLEEGIEHIEMTKKLTSLN
# B3: enzyme (Bacillus pumilus, UniProt A8FFI9); chain EARSIAWSVDEFFKNREGTFVIQEVKEKSPWVYNKKRAKERFAPQSTFKVANALIGLQTGAVRDEYDIKYWDGVKREIDNWNRDHTLGSGMRDSVVWYYQAMARDIGEERMNHWVKAIHYGNKDISGGIDQFWLSSTLRISPIEQVRFLKQLYEETLPFDLKNMRTVKRMMVQEEEKHATLYGKTGSGSDIGWYVGFIKHEHKTYILATNIKGTGIEAKDITYRILKKYHLMEASV
# B4: TRM10 D210A (Saccharomyces cerevisiae, UniProt Q12400); chain MSNDEINQNEEKVKRTPPLPPVPEGMSKKQWKKMCKRQRWEENKAKYNAERRVKKKRLRHERSAKIQEYIDRGEEVPQELIREPRINVNQTDSGIEIILDCSFDELMNDKEIVSLSNQVTRAYSANRRANHFAEIKVAPFDKRLKQRFETTLKNTNYENWNHFKFLPDDKIMFGDEHISKDKIVYLTADTEEKLEKLEPGMRYIVGGIVAKNRYKELCLKKAQKMGIPTRRLPIDEYINLEGRRVLTTTHVVQLMLKYFDDHNWKNAFESVLPPRKLDAEAKSASSSPAPKDT
# UniProt Q6QT07, sequence (whole entry, looked up): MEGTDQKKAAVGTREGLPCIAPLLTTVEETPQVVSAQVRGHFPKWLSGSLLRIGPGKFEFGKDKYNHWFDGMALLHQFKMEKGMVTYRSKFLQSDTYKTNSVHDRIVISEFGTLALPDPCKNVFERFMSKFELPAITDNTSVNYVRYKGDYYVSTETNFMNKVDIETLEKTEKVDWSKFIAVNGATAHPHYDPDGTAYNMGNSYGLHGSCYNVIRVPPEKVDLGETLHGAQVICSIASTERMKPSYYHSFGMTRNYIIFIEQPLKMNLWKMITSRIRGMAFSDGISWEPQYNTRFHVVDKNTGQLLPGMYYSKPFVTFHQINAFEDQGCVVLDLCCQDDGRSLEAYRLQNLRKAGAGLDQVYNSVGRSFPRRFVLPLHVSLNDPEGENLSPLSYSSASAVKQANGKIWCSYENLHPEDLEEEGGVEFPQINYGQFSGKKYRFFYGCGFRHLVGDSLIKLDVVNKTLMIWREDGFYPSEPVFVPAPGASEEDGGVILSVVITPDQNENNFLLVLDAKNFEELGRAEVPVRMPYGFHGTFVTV
# UniProt P10632, sequence (whole entry, looked up): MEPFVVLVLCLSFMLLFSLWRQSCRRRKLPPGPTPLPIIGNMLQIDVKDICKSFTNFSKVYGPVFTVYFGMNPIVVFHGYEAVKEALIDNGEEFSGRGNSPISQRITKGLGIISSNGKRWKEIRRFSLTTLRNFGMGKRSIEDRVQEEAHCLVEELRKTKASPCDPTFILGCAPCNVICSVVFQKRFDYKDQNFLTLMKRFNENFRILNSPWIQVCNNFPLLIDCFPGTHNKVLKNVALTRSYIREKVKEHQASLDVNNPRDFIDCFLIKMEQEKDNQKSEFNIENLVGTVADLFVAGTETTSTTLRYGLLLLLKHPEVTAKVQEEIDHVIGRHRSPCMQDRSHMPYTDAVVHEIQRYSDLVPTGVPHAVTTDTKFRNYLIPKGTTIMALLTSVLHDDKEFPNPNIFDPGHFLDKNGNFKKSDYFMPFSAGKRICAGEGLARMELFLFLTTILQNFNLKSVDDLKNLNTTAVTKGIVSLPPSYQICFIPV
Molecule,tested on,assay,system,conditions,how to read,quantity,value
B1 (UGT1A9),O=C(/C=C/c1ccc(O)cc1)CC(=O)/C=C/c1ccc(O)cc1,steady-state kinetics,,"pH 7.4, 37 °C",,Vmax/Km,8 µL/min/mg
"CYP2C8 (Homo sapiens, UniProt P10632)",COc1cc2c(cc1CC=C(C)C)C(=O)C[C@@H](c1ccc(O)cc1)O2,steady-state kinetics,,"pH 7.4, 37 °C",,K0.5,1.2 µM
B2 (SACOL1063),CC(=O)SCCNC(=O)CCNC(=O)[C@H](O)C(C)(C)COP(=O)(O)OP(=O)(O)OC[C@H]1O[C@@H](n2cnc3c(N)ncnc32)[C@H](O)[C@@H]1OP(=O)(O)O,steady-state kinetics,,"pH 8, 37 °C, together with: L-Thr 10 mM, AcCoA 0-2 mM",,K0.5,419 µM
B3 (enzyme),C[C@@H](O)[C@H]1C(=O)N2C(C(=O)O)=C(S[C@@H]3CN[C@H](CNS(N)(=O)=O)C3)[C@H](C)[C@H]12,steady-state kinetics,,pH 7,,kcat,0.014 ± 0.02 s⁻¹
CC(C)[C@H](NC(=O)[C@@H]1CCCN1C(=O)[C@H](CCCNC(=N)N)NC(=O)[C@H](CS)NC(=O)[C@H](Cc1c[nH]c2ccccc12)NC(=O)[C@H](CCCNC(=N)N)NC(=O)[C@@H](Cc1ccccc1)NC(=O)[C@H](Cc1c[nH]cn1)NC(=O)[C@H](CCC(=O)O)NC(=O)[C@H](CS)NC(=O)[C@H](CS)NC(=O)[C@H](CCCCN)NC(=O)[C@@H]1CC(=O)N[C@@H](CCCNC(=N)N)C(=O)N[C@@H](C)C(=O)N[C@@H](CC(=O)O)C(=O)N[C@H](Cc2ccc(O)cc2)C(=O)N1)C(N)=O [technetium-99m labelled],,,"C57 mice, liver","intravenous, 0.037 MBq, 2 h",,tissue uptake,2.22 ± 0.39 %ID/g
"BCO2 (Mustela putorius furo, UniProt Q6QT07)",CC1=C(/C=C/C(C)=C/C=C/C(C)=C/C=C/C=C(C)/C=C/C=C(C)/C=C/C2=C(C)C[C@@H](O)CC2(C)C)C(C)(C)CCC1,steady-state kinetics,crude Sf9 lysate,"pH 8.5, 37 °C, apparent, not purified, together with: FeSO4 10 µM, NAD+ 3 mM",,K0.5,80.8 µM
RXRRXRRXRRXRXB (PMO conjugate),pLuc705,MTT,peptide,"2 to 60 µM, 24 h, 10% serum, D-arginine variant",,viability,no effect
B4 (TRM10 D210A),C[S+](CC[C@H](N)C(=O)O)C[C@H]1O[C@@H](n2cnc3c(N)ncnc32)[C@H](O)[C@@H]1O,steady-state kinetics,,"pH 8, 30 °C",,K0.5,4.3 µM
FITC-labelled amyloid β(1-40),"bEnd.3, claudin-5 and occludin siRNA","basolateral to apical, Transwell",,"10 µM, 2 h, 37 °C, 72 h after siRNA",relative to: non-targeting siRNA,permeability,increased

# Excerpt of the above:
Molecule,tested on,assay,system,conditions,how to read,quantity,value
B1 (UGT1A9),O=C(/C=C/c1ccc(O)cc1)CC(=O)/C=C/c1ccc(O)cc1,steady-state kinetics,,"pH 7.4, 37 °C",,Vmax/Km,8 µL/min/mg
